Published values of several laboratories.
Protocols differ between the studies behind these lines. ± gives the spread as reported.

Structure (SMILES)	test	system	conditions	how to read	quantity	result
COc1cc(/C=C/C(=O)CC(=O)/C=C/c2ccc(O)c(OC)c2)ccc1O	I-125 label	C57BL/6J mouse, cerebellum	intranasal vs intraperitoneal, 10 µg/mouse IN, 100 µg/mouse IP, 24 h	baseline: intranasal over intraperitoneal	brain uptake ratio	2.11
Cc1cc(Nc2cc3ncccc3c(N[C@@H]3C[C@H]4CC[C@@H](C3)N4CCC#N)n2)n[nH]1		pregnant rat, maternal plasma	oral, 1000 mg/kg/day, gestation day 6		Cmax	102 ng/mL
O=C(c1nc2n(n1)[C@H](c1ccccc1)C[C@@H]2F)C1CC1		human, plasma	oral, 5 mg, single dose, fasted, healthy volunteers		Vd/F	82.1 L
O=C(NC[C@H]1CN(c2ccc(N3CCOCC3=O)cc2)C(=O)O1)c1ccc(Cl)s1		Sprague-Dawley rat, male, plasma	oral, 10 mg/kg		apparent clearance CL/F	71 ± 15.2 mL/min/kg
CO[C@H]1C[C@@H]2CC[C@@H](C)[C@@](O)(O2)C(=O)C(=O)N2CCCC[C@H]2C(=O)O[C@H]([C@H](C)C[C@@H]2CC[C@@H](OC(=O)C(C)(CO)CO)[C@H](OC)C2)CC(=O)[C@H](C)/C=C(\C)[C@@H](O)[C@@H](OC)C(=O)[C@H](C)C[C@H](C)/C=C/C=C/C=C/1C		human, whole blood	intravenous, 35 mg/m2 weekly, 0 to 24 h post dose, cycle 5, with: valproic acid		median AUC(0-t)	9090 ng·h/mL
CC(=O)O[C@H]1C(=O)[C@@]2(C)[C@H]([C@H](OC(=O)c3ccccc3)[C@]3(O)C[C@H](OC(=O)[C@H](O)[C@@H](NC(=O)c4ccccc4)c4ccccc4)C(C)=C1C3(C)C)[C@]1(OC(C)=O)CO[C@@H]1C[C@@H]2O		patients	i.v., 200 mg/m^2, 3 h, with: lenvatinib 6 mg twice daily, carboplatin		end-of-infusion concentration	6560 ± 1570 ng/mL
CCCC[C@@H]1NC(=O)[C@@H](NC(=O)[C@H](CCC(=O)O)NC(=O)CNC(=O)CN2CCN(CC(=O)O)CCN(CC(=O)O)CCN(CC(=O)O)CC2)CCCCNC(=O)C[C@@H](C(N)=O)NC(=O)[C@H](C(C)C)NC(=O)[C@@H]2CCCN2C(=O)[C@H](CCCNC(=N)N)NC(=O)CNC(=O)[C@H](Cc2c[nH]c3ccccc23)NC(=O)[C@H](CCCNC(=N)N)NC(=O)[C@@H](Cc2ccccc2)NC(=O)[C@H](Cc2c[nH]cn2)NC(=O)[C@H](CCC(=O)O)NC1=O [indium-111 labelled]		C57 mice, B16F10 lung metastasis, urine	intravenous, 0.037 MBq, 24 h		urinary excretion	95.61 ± 0.59%
COc1ccc(C=CC(=O)O)cc1OS(=O)(=O)O		human, fasted baseline, cerebrospinal fluid			median concentration	12.8 nM
NNC(=O)c1ccncc1	cytochrome c release, ELISA	BALB/cByJ female mouse liver mitochondria	30 min	baseline: alamethicin maximal release	EC20	> 400 µM
CC(C)[C@H](NC(=O)[C@@H]1CCCN1C(=O)[C@H](CCCNC(=N)N)NC(=O)[C@H](CS)NC(=O)[C@H](Cc1c[nH]c2ccccc12)NC(=O)[C@H](CCCNC(=N)N)NC(=O)[C@@H](Cc1ccccc1)NC(=O)[C@H](Cc1c[nH]cn1)NC(=O)[C@H](CCC(=O)O)NC(=O)[C@H](CS)NC(=O)[C@H](CS)NC(=O)[C@H](CCCCN)NC(=O)[C@@H]1CC(=O)N[C@@H](CCCNC(=N)N)C(=O)N[C@@H]([C@@H](C)O)C(=O)N[C@@H](CC(=O)O)C(=O)N[C@H](Cc2ccc(O)cc2)C(=O)N1)C(N)=O [technetium-99m labelled]	radio-HPLC	mouse serum	24 h, 37 °C		serum stability	stable
COc1cccc(N2CCN(C3=Nc4c(F)cccc4[C@H](CC(=O)O)N3c3cc(C(F)(F)F)ccc3OC)CC2)c1	UHPLC-MS/MS	healthy women, plasma	intravenous infusion, 480 mg single dose, 60 min infusion, HPβCD formulation		AUC(0-last)	105000 ± 21300 ng·h/mL
O=C(O)Cc1ccccc1Nc1c(Cl)cccc1Cl	cytochrome c release, ELISA	BALB/cByJ female mouse liver mitochondria	30 min	baseline: alamethicin maximal release	EC20	> 200 µM
O=c1c(O)c(-c2ccc(O)cc2)oc2cc(OS(=O)(=O)O)cc(O)c12		FVB mice, male, Mdr1a^−/−, plasma	oral, 10 mg/kg of kaempferol		MRT	3.95 ± 1.53 h
CC(C)=CCC[C@]1(C)[C@@H](CC=C(C)C)C[C@@]2(CC=C(C)C)C(=O)[C@]1(C(=O)C(C)C)C(=O)C(CC=C(C)C)=C2O	cytochrome c release, ELISA	mouse liver mitochondria	30 min	baseline: maximal release by alamethicin	EC20	> 10 µM
Cn1c(-c2ccc(C(N)=O)cc2F)nnc1C(C)(C)Oc1c(F)cc(Cl)cc1F		healthy young Japanese subjects, plasma	oral, 50 mg once daily, day 18, 14 days dosing		AUC(0-tau) mean	7920 ng·h/mL

For quick reference, copied from above:
Structure (SMILES)	test	system	conditions	how to read	quantity	result
NNC(=O)c1ccncc1	cytochrome c release, ELISA	BALB/cByJ female mouse liver mitochondria	30 min	baseline: alamethicin maximal release	EC20	> 400 µM
